Measured values gathered from unrelated publications.
Parts stem from different laboratories: compare values within a part only.
Sequence of UniProt O75460 (whole entry, looked up): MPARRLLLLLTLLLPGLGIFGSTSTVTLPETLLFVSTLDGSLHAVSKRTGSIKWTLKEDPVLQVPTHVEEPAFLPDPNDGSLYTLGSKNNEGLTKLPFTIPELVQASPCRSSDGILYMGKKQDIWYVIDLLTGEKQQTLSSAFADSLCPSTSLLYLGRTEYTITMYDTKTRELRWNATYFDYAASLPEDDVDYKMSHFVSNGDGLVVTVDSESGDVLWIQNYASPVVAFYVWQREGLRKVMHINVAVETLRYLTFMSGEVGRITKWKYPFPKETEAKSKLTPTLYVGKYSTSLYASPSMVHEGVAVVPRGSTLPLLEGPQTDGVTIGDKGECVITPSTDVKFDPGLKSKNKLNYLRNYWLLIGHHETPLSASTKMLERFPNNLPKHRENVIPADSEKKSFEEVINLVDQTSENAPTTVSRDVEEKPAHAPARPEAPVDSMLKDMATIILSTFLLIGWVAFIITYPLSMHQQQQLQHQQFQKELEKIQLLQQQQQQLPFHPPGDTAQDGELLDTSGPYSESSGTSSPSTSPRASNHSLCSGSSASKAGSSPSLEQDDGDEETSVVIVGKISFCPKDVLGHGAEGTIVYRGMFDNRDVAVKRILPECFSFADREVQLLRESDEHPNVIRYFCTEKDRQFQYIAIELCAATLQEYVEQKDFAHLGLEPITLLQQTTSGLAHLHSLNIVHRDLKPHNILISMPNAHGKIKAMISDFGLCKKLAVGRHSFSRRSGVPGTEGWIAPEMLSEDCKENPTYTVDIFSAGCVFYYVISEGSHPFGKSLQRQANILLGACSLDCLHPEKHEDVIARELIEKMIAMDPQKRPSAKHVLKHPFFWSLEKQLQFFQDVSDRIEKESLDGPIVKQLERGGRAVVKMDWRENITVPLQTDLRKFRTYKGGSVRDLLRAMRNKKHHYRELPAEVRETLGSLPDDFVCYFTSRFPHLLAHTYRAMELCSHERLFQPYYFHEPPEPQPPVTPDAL
Sequence of UniProt P52333 (whole entry, looked up): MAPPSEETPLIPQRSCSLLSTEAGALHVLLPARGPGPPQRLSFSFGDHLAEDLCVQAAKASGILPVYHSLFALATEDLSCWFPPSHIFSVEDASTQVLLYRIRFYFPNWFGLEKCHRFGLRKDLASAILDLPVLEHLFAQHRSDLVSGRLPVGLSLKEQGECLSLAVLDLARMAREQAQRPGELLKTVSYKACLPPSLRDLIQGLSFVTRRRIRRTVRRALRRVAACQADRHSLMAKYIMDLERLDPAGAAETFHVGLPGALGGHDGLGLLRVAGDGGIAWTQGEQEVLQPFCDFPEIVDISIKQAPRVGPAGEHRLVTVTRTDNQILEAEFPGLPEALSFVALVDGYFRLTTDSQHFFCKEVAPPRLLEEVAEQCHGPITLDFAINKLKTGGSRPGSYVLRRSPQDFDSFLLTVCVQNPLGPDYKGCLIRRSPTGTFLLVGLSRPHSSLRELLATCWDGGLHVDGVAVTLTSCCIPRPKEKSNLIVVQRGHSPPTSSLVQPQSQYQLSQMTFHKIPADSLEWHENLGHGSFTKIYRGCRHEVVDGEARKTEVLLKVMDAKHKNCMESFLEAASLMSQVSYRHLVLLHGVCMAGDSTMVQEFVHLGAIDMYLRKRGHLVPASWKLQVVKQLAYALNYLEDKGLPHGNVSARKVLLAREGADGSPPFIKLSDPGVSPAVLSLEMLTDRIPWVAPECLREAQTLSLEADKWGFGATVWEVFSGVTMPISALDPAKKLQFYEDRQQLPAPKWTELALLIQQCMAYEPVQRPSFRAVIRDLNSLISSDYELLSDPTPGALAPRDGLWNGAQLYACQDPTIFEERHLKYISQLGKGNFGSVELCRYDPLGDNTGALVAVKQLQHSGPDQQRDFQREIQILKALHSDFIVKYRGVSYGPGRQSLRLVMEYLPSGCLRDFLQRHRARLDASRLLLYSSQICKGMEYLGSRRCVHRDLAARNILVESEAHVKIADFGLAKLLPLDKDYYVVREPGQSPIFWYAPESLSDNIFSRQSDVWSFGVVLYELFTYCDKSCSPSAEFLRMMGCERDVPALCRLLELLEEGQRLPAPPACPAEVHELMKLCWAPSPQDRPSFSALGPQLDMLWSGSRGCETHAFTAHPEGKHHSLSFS
Sequence of UniProt Q12866 (whole entry, looked up): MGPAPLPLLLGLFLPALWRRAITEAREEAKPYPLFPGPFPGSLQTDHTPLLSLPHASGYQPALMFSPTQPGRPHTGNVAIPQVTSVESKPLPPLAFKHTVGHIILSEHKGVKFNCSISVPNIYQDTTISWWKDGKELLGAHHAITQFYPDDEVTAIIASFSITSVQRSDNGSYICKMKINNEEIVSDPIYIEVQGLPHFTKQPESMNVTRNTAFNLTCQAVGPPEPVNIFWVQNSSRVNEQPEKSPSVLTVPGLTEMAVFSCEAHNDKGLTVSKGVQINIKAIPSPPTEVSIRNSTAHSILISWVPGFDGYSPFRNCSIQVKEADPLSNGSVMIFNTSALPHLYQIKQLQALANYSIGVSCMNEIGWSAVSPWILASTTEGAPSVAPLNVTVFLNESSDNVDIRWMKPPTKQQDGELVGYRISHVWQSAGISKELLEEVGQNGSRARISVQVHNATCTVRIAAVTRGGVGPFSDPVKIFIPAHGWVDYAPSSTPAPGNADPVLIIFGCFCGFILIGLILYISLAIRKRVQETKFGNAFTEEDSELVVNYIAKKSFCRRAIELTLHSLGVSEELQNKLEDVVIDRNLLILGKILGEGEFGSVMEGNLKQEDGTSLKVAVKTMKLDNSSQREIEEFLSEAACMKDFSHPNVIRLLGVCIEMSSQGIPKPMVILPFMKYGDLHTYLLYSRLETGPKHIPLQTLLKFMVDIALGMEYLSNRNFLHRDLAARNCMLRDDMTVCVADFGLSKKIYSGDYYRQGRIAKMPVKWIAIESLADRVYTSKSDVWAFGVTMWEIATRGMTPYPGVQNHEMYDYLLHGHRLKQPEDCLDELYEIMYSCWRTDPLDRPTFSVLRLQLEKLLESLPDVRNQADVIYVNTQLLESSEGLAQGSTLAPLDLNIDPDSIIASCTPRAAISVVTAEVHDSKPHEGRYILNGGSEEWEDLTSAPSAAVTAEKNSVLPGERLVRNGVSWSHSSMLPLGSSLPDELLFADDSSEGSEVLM
Sequence of UniProt Q00537 (whole entry, looked up): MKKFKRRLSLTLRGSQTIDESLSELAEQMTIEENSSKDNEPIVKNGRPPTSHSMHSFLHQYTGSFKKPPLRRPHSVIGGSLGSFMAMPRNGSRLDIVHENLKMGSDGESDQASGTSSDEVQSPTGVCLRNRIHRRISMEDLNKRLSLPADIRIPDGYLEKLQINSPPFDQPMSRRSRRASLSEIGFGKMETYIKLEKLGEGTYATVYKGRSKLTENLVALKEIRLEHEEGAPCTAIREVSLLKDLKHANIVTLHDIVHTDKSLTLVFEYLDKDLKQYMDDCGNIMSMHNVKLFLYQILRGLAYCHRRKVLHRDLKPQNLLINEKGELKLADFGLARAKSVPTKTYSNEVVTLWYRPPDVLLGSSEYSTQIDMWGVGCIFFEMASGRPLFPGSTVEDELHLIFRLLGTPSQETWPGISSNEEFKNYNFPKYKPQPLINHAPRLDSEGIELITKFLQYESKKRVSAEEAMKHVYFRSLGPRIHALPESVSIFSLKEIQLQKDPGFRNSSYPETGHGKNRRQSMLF

Set 1
SMILES: C[C@@H]1CN(c2ccc(-c3cc(C(=O)NCCOCCOCCOCCOCCNC(=O)/C=C/c4[nH]cc(C(=O)N[C@@H](CC(N)=O)c5ccc(F)c(Cl)c5)c4-c4ccc(Cl)cc4F)ccc3F)cc2NC(=O)c2c[nH]c(=O)cc2C(F)(F)F)C[C@H](C)N1C
Observed: thermal unfolding
Method: differential scanning fluorimetry
Tested at: 5.5 µM
Direction: higher = more unfolded
Endpoint: SYPRO Orange fluorescence
DCAF1: DDB1- and CUL4-associated factor 1 (DCAF1, Homo sapiens, UniProt Q9Y4B6)
Sequence of UniProt Q9Y4B6 (whole entry, looked up): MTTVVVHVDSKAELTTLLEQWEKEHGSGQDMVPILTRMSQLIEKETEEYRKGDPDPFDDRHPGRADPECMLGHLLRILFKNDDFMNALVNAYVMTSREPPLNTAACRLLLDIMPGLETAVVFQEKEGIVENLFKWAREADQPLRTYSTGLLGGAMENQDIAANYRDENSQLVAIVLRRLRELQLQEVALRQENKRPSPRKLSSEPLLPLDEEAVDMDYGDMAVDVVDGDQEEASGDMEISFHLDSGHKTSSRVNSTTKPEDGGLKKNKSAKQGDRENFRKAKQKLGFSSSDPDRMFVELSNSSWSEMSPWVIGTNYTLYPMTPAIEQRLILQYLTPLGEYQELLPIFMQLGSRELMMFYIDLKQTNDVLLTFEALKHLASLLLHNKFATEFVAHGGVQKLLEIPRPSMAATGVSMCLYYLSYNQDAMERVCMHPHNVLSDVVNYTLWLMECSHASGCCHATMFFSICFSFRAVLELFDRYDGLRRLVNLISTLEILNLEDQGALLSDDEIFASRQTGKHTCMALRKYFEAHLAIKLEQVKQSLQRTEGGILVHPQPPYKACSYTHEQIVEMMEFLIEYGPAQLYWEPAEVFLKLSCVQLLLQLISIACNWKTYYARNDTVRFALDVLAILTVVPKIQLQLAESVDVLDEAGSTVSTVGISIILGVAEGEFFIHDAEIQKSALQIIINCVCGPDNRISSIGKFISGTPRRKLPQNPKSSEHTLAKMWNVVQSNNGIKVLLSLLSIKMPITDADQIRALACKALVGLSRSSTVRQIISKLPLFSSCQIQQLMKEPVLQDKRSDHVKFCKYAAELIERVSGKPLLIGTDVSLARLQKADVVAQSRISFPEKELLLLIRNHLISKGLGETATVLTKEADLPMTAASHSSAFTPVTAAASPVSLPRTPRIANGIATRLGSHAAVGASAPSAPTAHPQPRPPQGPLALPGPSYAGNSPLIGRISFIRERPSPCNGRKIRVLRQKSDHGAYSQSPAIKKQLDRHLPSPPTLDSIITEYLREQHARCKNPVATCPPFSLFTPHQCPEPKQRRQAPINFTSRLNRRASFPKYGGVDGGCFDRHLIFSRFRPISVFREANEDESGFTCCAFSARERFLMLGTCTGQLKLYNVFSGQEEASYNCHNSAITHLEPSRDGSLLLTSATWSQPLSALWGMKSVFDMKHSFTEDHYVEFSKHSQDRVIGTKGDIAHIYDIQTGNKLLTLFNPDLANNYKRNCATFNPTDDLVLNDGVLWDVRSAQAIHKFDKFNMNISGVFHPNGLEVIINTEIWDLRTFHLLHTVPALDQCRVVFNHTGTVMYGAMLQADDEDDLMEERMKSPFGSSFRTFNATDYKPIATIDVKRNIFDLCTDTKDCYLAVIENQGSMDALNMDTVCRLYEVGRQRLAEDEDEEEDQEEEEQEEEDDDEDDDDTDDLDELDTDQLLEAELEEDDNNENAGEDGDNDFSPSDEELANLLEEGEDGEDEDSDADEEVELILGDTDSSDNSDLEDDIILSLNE
WDR5: WD repeat-containing protein 5 (WDR5, Homo sapiens, UniProt P61964)
DCAF1; 59.81 °C: 39800 a.u.
DCAF1; 34.6 °C: 10100 a.u.
WDR5; 63.61 °C: 14100 a.u.
DCAF1; 73.41 °C: 51800 a.u.
WDR5; 54.21 °C: 16800 a.u.
DCAF1; 53.01 °C: 18000 a.u.
WDR5; 38.8 °C: 14100 a.u.
WDR5; 78.21 °C: 35000 a.u.

Set 2
SMILES: CCC1(c2cccc(-c3cn(C)nc3C)c2)C2=C(Nc3n[nH]cc31)C(F)C(C)(C)CC2=O (single isomer, unassigned)
Tested at: 1 µM
Endpoint: remaining binding
NUAK1 (Homo sapiens, UniProt O60285); binding, competition with immobilised ligand: 98%
PRKCI (Homo sapiens, UniProt P41743); kinase binding, KINOMEscan; reference: DMSO control: 100%
CDK4 (Homo sapiens, UniProt P11802); binding, competition with immobilised ligand: 71%
MARK3 (Homo sapiens, UniProt P27448); binding, competition with immobilised ligand: 97%
CDK17 (Homo sapiens, UniProt Q00537); binding, competition with immobilised ligand: 100%
IKBKE (Homo sapiens, UniProt Q14164); binding, competition with immobilised ligand: 100%
Tyrosine-protein kinase JAK3, JH1 (JAK3, Homo sapiens, UniProt P52333); binding, competition with immobilised ligand: 100%
DYRK1B (Homo sapiens, UniProt Q9Y463); kinase binding, KINOMEscan; reference: DMSO control: 93%
TGFBR2 (Homo sapiens, UniProt P37173); binding, competition with immobilised ligand: 100%
CAMK4 (Homo sapiens, UniProt Q16566); binding, competition with immobilised ligand: 93%
PLK1 (Homo sapiens, UniProt P53350); binding, competition with immobilised ligand: 100%
MERTK (Homo sapiens, UniProt Q12866); kinase binding, KINOMEscan; reference: DMSO control: 100%
FLT3 (Homo sapiens, UniProt P36888, D835H); binding, competition with immobilised ligand: 100%
ERN1 (Homo sapiens, UniProt O75460); binding, competition with immobilised ligand: 81%

Set 3
Compound: Cc1ccc(O)c(C)c1-c1cnc2[nH]c(-c3cnc(N4CCC5(CC4)CC(CN4CCN(c6ccc(NC7CCC(=O)NC7=O)cc6F)CC4)C5)nc3)cc2c1C#N (stereo not shown)
Target: Membrane-associated tyrosine- and threonine-specific cdc2-inhibitory kinase (PKMYT1, Homo sapiens, UniProt Q99640)
Endpoint: inhibition
Target sequence (Q99640 1-499): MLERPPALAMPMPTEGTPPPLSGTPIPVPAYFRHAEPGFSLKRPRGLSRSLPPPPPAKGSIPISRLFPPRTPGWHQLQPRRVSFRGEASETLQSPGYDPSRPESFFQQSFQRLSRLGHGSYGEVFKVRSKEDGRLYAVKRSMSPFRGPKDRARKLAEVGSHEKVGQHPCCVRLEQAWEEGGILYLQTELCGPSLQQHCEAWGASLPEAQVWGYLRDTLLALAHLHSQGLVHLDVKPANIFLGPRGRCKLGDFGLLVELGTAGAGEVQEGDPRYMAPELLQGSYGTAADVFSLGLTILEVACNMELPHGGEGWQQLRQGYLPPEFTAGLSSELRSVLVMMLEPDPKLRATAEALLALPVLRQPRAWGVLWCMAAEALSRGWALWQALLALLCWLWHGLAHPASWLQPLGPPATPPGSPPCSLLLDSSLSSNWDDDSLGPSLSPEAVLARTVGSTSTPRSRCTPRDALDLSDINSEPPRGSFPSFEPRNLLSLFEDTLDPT
cell-free assay, inhibitor, TR-FRET; 12.35 nM: 77.3%
0.00412 µM: 38.4%
0.01235 µM: 75.1%
0.03704 µM: 94%
0.00046 µM: -3.82%
1 µM: 99.6%
cell-free assay, inhibitor, TR-FRET; 1.37 nM: 7.41%
cell-free assay, inhibitor, TR-FRET; 0.1111 µM: 97.7%
cell-free assay, inhibitor, TR-FRET; 1 µM: 99.9%
cell-free assay, inhibitor, TR-FRET; 152 pM: -5.24%
cell-free assay, inhibitor, TR-FRET; 0.3333 µM: 99.5%
0.00137 µM: 7.24%

Set 4
SMILES: COc1cc(-c2nc3ccc(C(=O)NCCCN(C)C)cc3n2C2CCC2)cc(OC)c1OC
Observed: binding
Method: competition with immobilised ligand
Tested at: 1 µM
Endpoint: remaining binding
MAP3K4 (Homo sapiens, UniProt Q9Y6R4): 98%
CSK (Homo sapiens, UniProt P41240): 100%
ERN1 (Homo sapiens, UniProt O75460): 63%
WNK2 (Homo sapiens, UniProt Q9Y3S1): 92%
LYN (Homo sapiens, UniProt P07948): 81%
MAPK13 (Homo sapiens, UniProt O15264): 100%
CASK (Homo sapiens, UniProt O14936): 100%
FLT3 (Homo sapiens, UniProt P36888, R834Q): 80%
EGFR (Homo sapiens, UniProt P00533, L861Q): 96%
Tyrosine-protein kinase JAK3, JH1 (JAK3, Homo sapiens, UniProt P52333): 58%
PRKAA2 (Homo sapiens, UniProt P54646): 97%
ROCK1 (Homo sapiens, UniProt Q13464): 88%
YES1 (Homo sapiens, UniProt P07947): 88%
PAK1 (Homo sapiens, UniProt Q13153): 95%
VRK2 (Homo sapiens, UniProt Q86Y07): 89%

Some of these lines once more (set 2):
Tyrosine-protein kinase JAK3, JH1 (JAK3, Homo sapiens, UniProt P52333); binding, competition with immobilised ligand: 100%
FLT3 (Homo sapiens, UniProt P36888, D835H); binding, competition with immobilised ligand: 100%
CDK17 (Homo sapiens, UniProt Q00537); binding, competition with immobilised ligand: 100%
CDK4 (Homo sapiens, UniProt P11802); binding, competition with immobilised ligand: 71%
IKBKE (Homo sapiens, UniProt Q14164); binding, competition with immobilised ligand: 100%
PRKCI (Homo sapiens, UniProt P41743); kinase binding, KINOMEscan; reference: DMSO control: 100%
DYRK1B (Homo sapiens, UniProt Q9Y463); kinase binding, KINOMEscan; reference: DMSO control: 93%
MERTK (Homo sapiens, UniProt Q12866); kinase binding, KINOMEscan; reference: DMSO control: 100%
